Assay results from different studies.
Each line is one published result; not all experiments were run side by side. ± gives the spread as reported.

CCC(=O)CCC[C@H](C)C[C@H](NC(=O)[C@@H]1C[C@H](C)CN1C(=O)/C=C/[C@@H](C)CC)C(=O)N[C@H](C(=O)NC(C)(C)C(=O)N[C@@H](CC(C)C)C(=O)N[C@@H](CC(C)C)C(=O)NC(C)(C)C(=O)NC(C)(C)C(=O)NCCC(=O)N[C@@H](C)CNC)[C@H](O)C(C)C — GI50 (SUM185PE; cell growth or viability, SRB; 48 h): 3.9 nM
Cc1cc(CS(=O)(=O)c2ccccc2)cc(OCc2ccc(CN3CCC[C@@H]3CO)cc2)c1 — Ca2+ transient amplitude (U2OS; NAADP-evoked Ca2+ release; 10 µM, 10 min pretreatment, added: NAADP 100 nM microinjected; relative to: NAADP alone): 14.1 ± 3%
COc1ccc(/C=C/C(=O)CC(=O)/C=C/c2ccc(OC)c(OC)c2)cc1OC — protein level (LN-229; Western blot, item: p-AKT, p-ERK, LC3B-II, p62; concentration not given, 24 h): increased
N=C(N)Nc1ccc(-c2nc3ccc(-c4ccc5nc(-c6ccc(NC(=N)N)cc6)[nH]c5c4)cc3[nH]2)cc1 — TCF4 intron 3 level (FECD cells, control siRNA; RT-qPCR; concentration not given): no effect
CC/C=C\C/C=C\C/C=C\C/C=C\C/C=C\C/C=C\CCC(=O)Nc1ccn(C2OC(CO)C(O)C2(F)F)c(=O)n1 (stereo not drawn) — CC50 (SNB-75; NCI60 screen): > 100000 nM
O=C(O)CCC(NP(=O)(O)OCCC[C@@H](NC(=O)CCC(NC(=O)CCCCCNC(=O)c1ccc([18F])cc1)C(=O)O)C(=O)O)C(=O)O (stereo partly drawn) — internalized fraction (CWR22Rv1; 1 h): 81.4%
CSCC[C@H](NC(=O)[C@H](CC(C)C)NC(=O)CNC(=O)[C@H](Cc1ccccc1)NC(=O)[C@H](Cc1ccccc1)NC(=O)[C@H](CCC(N)=O)NC(=O)[C@H](CCC(N)=O)NC(=O)[C@@H]1CCCN1C(=O)[C@H](CCCCN)NC(=O)[C@@H]1CCCN1C(=O)[C@@H](N)CCCNC(=N)N)C(N)=O — degranulation rate (rat mast cells; whole-cell patch-clamp capacitance; 50 µM, intracellular application): 0.08 ± 0.01 pF/s
O=C(O)c1ccc(/C=C2\SC(=S)N(Cc3cccc(C(F)(F)F)c3)C2=O)cc1 — cell death (LPS-primed mouse BMDM; item: LDH release; concentration not given, added: nigericin): inhibited
C=CC(=O)Oc1ccc(Cl)cc1C(=O)Nc1ccc([N+](=O)[O-])cc1Cl — cell death (CWR22Rv1 cells; ELISA; 0.5 and 1.0 µM): increased
CC(C)[C@@H]1NC(=O)[C@H](CCCCN)NC(=O)[C@@H](Cc2c[nH]c3ccccc23)NC(=O)[C@H](Cc2ccc(O)cc2)NC(=O)[C@@H](NC(=O)[C@H](N)Cc2ccc3ccccc3c2)CSSC[C@@H](C(=O)N[C@@H](Cc2ccc3ccccc3c2)C(N)=O)NC1=O — ERK phosphorylation (NCI-H1299-BRS-3; antagonist, Western blot; concentration not given, added: BA1): inhibited
CNC(=O)c1cc(Oc2ccc(NC(=O)CCC(=O)OC3OC4OC5(C)CCC6C(C)CCC(C3C)C46OO5)cc2)ccn1 (stereo not drawn) — selectivity ratio (Huh-7 and LO2; cell viability, MTT; 72 h; relative to: IC50 LO2 over IC50 Huh-7): 4
CC[C@H](C)[C@H](NC(=O)[C@H](Cc1ccccc1)NC(=O)[C@H](CCC(=O)O)NC(=O)[C@H](CCCCN)NC(=O)[C@H](C)NC(=O)[C@H](C)NC(=O)[C@H](CC(N)=O)NC(=O)CNC(=O)[C@H](CCC(=O)O)NC(=O)[C@H](CC(C)C)NC(=O)[C@H](Cc1ccc(O)cc1)NC(=O)[C@H](CO)NC(=O)[C@H](CO)NC(=O)[C@@H](NC(=O)[C@H](CC(=O)O)NC(=O)[C@H](CO)NC(=O)[C@@H](NC(=O)[C@H](Cc1ccccc1)NC(=O)[C@H](CCC(N)=O)NC(=O)CNC(=O)[C@H](CCC(=O)O)NC(=O)[C@H](C)NC(=O)[C@@H](N)Cc1c[nH]cn1)[C@@H](C)O)C(C)C)C(=O)N[C@@H](C)C(=O)N[C@@H](Cc1c[nH]c2ccccc12)C(=O)N[C@@H](CC(C)C)C(=O)N[C@H](C(=O)N[C@@H](CCCCN)C(=O)NCC(=O)N[C@@H](CCCNC(=N)N)C(N)=O)C(C)C — relative potency (RIN-m5F rat β-cells; insulin secretion; relative to: EC50 of analogue over EC50 of GLP-1(7-36)-amide): 0.02
CC(C)C[C@@H](NC(=O)CCNc1ccc([N+](=O)[O-])c2nonc12)C(=O)N[C@H](CC(C)C)C(=O)N[C@H](CC(C)C)C(=O)N[C@H](CC(C)C)C(=O)N[C@H](Cc1ccc(OP(=O)(O)O)cc1)C(=O)O — viability (OVSAHO; MTT; 200 µM, 24 h): > 60%
CNC(=O)c1cc(Oc2ccc(NC(=O)c3cc(-c4ccccc4OC(=O)CCC(=O)OC4OC5OC6(C)CCC7C(C)CCC(C4C)C57OO6)ccn3)cc2)ccn1 (stereo not drawn) — selectivity ratio (Hep3B and LO2; cell viability, MTT; 72 h; relative to: IC50 LO2 over IC50 Hep3B): 6.9
Cc1cc(O)cc(-c2nc(Nc3cc(C(F)(F)F)cc(C(F)(F)F)c3)ncc2-c2ccnc(Cl)c2)c1 — inhibition (HT-29; autophagy, Cyto-ID; 10 µM, 48 h): 15%
COc1ccccc1/C=C/[N+](=O)[O-] — selectivity ratio (H9c2; cytotoxicity; relative to: CC50 H9c2 over CC50 MOLM-13): 30.1
CC12OOC(C)(OO1)C2CCC(=O)NCCCNc1ccnc2cc(Cl)ccc12 (stereo not drawn) — inhibition (RPMI-8226; cell growth or viability, resazurin; 10 µM, 48 h): 16.3%
CCCCCCCCCCCCCC(=O)NCC(=O)N[C@@H](CCCNC(=N)N)C(=O)N[C@@H](Cc1c[nH]c2ccccc12)C(=O)N[C@@H](CCCCN)C(=O)N[C@H](C(=O)N[C@@H](Cc1ccccc1)C(=O)N[C@@H](CCCCN)C(=O)N[C@@H](CCCCN)C(=O)N[C@H](C(=O)N[C@@H](CCC(=O)O)C(=O)N[C@@H](CCCCN)C(=O)N[C@H](C(=O)NCC(=O)N[C@@H](CCC(N)=O)C(=O)N[C@@H](CC(N)=O)C(=O)N[C@H](C(=O)N[C@@H](CCCNC(=N)N)C(=O)N[C@@H](CC(=O)O)C(=O)NCC(=O)N[C@H](C(=O)N[C@H](C(=O)N[C@@H](CCCCN)C(=O)N[C@@H](C)C(=O)NCC(=O)N1CCC[C@H]1C(=O)N[C@@H](C)C(=O)N[C@H](C(=O)N[C@@H](C)C(=O)N[C@H](C(=O)N[C@H](C(=O)NCC(=O)N[C@@H](CCC(N)=O)C(=O)N[C@@H](C)C(=O)N[C@@H](C)C(=O)N[C@H](C(=O)N[C@H](C(N)=O)[C@@H](C)CC)[C@@H](C)O)C(C)C)C(C)C)C(C)C)C(C)C)[C@@H](C)CC)[C@@H](C)CC)C(C)C)[C@@H](C)CC)[C@@H](C)CC — ROS level (K562/MDR; DCFH-DA fluorescence; 2 and 4 µM, 12 h; relative to: PBS control): increased
CC12CCC3(CCC(=O)NCCCNc4ccnc5cc(Cl)ccc45)C(C)(OOC3(C)O1)O2 — inhibition (RPMI-8226; cell growth or viability, resazurin; 10 µM, 48 h): 22.7%
CC[C@H](C)[C@H](NC(C)=O)C(=O)N[C@@H](CC(N)=O)C(=O)N[C@@H](Cc1c[nH]c2ccccc12)C(=O)N[C@@H](Cc1c[nH]cn1)C(=O)NCC(=O)N[C@H](C(=O)N[C@@H](C)C(=O)N[C@@H](Cc1c[nH]cn1)C(=O)N[C@@H](CCSC)C(=O)N[C@@H](C)C(=O)N[C@@H](CCCCN)C(=O)N[C@@H](CCCCN)C(=O)N[C@@H](CC(C)C)C(=O)N[C@@H](CC(C)C)C(N)=O)[C@@H](C)CC — Hill coefficient (human erythrocytes; hemolysis; no metal added): 1.4 ± 0.1
C#CCCCN(CCNc1ccnc2cc(Cl)ccc12)C(=O)CCC(=O)O[C@@H]1O[C@@H]2O[C@@]3(C)CC[C@H]4[C@H](C)CCC([C@H]1C)[C@@]24OO3 (stereo partly drawn) — inhibition (RPMI-8226; cell growth or viability, resazurin; 10 µM, 48 h): 35.8%
O=C1[O][Pt]2([OH])([OH])([NH]C3CCCCC3[NH]2)[O]C1=O (stereo not drawn) — tube length disruption (HUVEC; tube formation; IC10, 16 h): 16%
CC[C@H](C)[C@H](NC(=O)[C@H](CC(N)=O)NC(=O)[C@H](CCCCN)NC(=O)[C@H](Cc1ccccc1)NC(=O)[C@H](Cc1ccccc1)NC(=O)[C@H](Cc1c[nH]cn1)NC(=O)[C@@H](NC(=O)[C@@H](NC(=O)[C@@H]1CCCN1C(=O)[C@@H](N)CC(N)=O)C(C)C)C(C)C)C(=O)N[C@H](C(=O)N[C@H](C(=O)N[C@@H](C)C(=O)O)[C@@H](C)O)C(C)C — EC50 (T cell clone Ob.1E10; T cell proliferation, agonist, [3H]thymidine incorporation; 72 h, peptide-pulsed APC, added: EBV-transformed B cells DR2/DQ6 as APC): > 50000 nM
CC(C)CC(O)(CC(C)C)c1cn(C(=O)N2CCCC2)nn1 — SILAC ratio (mouse T-cells; N-terminal labeled proteins, N-terminal enrichment proteomics, item: LARP4; 1 nM, 6 h; relative to: DMSO): 4.42 ± 0.23
Cc1cccc(O)c1C(=O)OCC1(O)C(Nc2ccc3c(c2)Cc2ccccc2-3)C(N)C(NC(=O)N(C)C)(C(C)O)C1(C)O (stereo not drawn) — GI50 (MOLT-4; cell growth or viability, SRB): 780 nM
CCN(CC)CCOc1ccc(-c2nnn(Cc3ccc(OC)cc3)c2N)cc1 — protein level (HEI-193; western blot, item: SOX10, MBP, p21, p27; concentration not given, 7 days): increased
CC1CCC2C(C)C(OC(=O)CCC(=O)N(CCCc3cn(-c4ccc(CN5CCOCC5)cc4)nn3)CCNc3ccnc4cc(Cl)ccc34)OC3OC4(C)CCC1C32OO4 (stereo not drawn) — inhibition (RPMI-8226; cell growth or viability, resazurin; 10 µM, 48 h): 27.2%
Cc1cc2c(C(=O)Cc3ccccc3)c(O)c(O)cc2c(O)c1-c1c(C)cc2c(C(=O)Cc3ccccc3)c(O)c(O)cc2c1O — EC50 (RS11846; apoptosis, annexin V/PI flow cytometry; 1-2 d): 4900 nM
CCOP(=O)(OCC)C(Cc1c(F)c(F)c(Sc2ccc(OC)cc2)c(F)c1F)Nc1ccccc1 (stereo not drawn) — clonogenic survival (T98G; 20 µM; relative to: untreated): 85%
CC12OOC(C)(OO1)C2CCC(=O)NCCNc1ccnc2cc(Cl)ccc12 (stereo not drawn) — inhibition (RPMI-8226; cell growth or viability, resazurin; 10 µM, 48 h): 24.5%
CCCN1CCNC1=[S+][Ag-3]([O][N+](=O)[O-])([P+](c1ccccc1)(c1ccccc1)c1ccccc1)[P+](c1ccccc1)(c1ccccc1)c1ccccc1 — cell killing (MG-63 osteosarcoma; MTT; 6.25 µM): ≤ 40%
CC[C@H](C)[C@H](NC(C)=O)C(=O)N[C@@H](CC(N)=O)C(=O)N[C@@H](Cc1c[nH]c2ccccc12)C(=O)N[C@@H](CCC(=O)O)C(=O)NCC(=O)N[C@H](C(=O)N[C@@H](C)C(=O)N[C@@H](Cc1c[nH]cn1)C(=O)N[C@@H](CCSC)C(=O)N[C@@H](C)C(=O)N[C@@H](CCCCN)C(=O)N[C@@H](CCCCN)C(=O)N[C@@H](CC(C)C)C(=O)N[C@@H](CC(C)C)C(N)=O)[C@@H](C)CC — Hill coefficient (human erythrocytes; haemolysis; added: Zn(II) 300 µM): 2.1 ± 0.1
COc1ccc(NC(=O)c2ccc(NC(=O)CN3C(=O)S/C(=C\c4ccccc4OC)C3=O)cc2)cc1 — selectivity index (HT-29; MTT; relative to: IC50 Vero over IC50 HT-29): 6.65
